Published values of several laboratories.
Protocols differ between the studies behind these lines. ± gives the spread as reported.

Structure (SMILES) = CCOc1ccc(Cc2cc([C@]34OC[C@](CO)(O3)[C@@H](O)[C@H](O)[C@H]4O)ccc2Cl)cc1; test system = human, type 2 diabetes, moderate renal impairment, plasma; conditions = oral, 15 mg; Vz/F = 228 L
Structure (SMILES) = Cc1ccsc1C(=O)Nc1cc(CN2CCN(C(=O)CO)CC2)ccc1/C=C/c1n[nH]c2ccccc12; test system = human patients, plasma; conditions = oral, 50 mg/day, day 28; Vz/F = 29.6 ± 1.69 L
Structure (SMILES) = C=CC(=O)N1CCC(CNc2ncnc(N)c2-c2ccc(Oc3ccccc3)cc2)CC1; test system = human, plasma; conditions = oral, 500 mg single dose, geometric mean; Vz/F = 1480 L
Structure (SMILES) = CC(C)NC[C@@H](C(=O)N1CCN(c2ncnc3c2[C@H](C)C[C@H]3O)CC1)c1ccc(Cl)cc1; test system = human, Severe hepatic function (Child-Pugh), plasma; conditions = oral, 100 mg single dose, geometric mean; Vz/F = 10600 L
Structure (SMILES) = CCOc1c([C@H](C)n2nc(C)c3c(N)ncnc32)cc(Cl)c(F)c1[C@@H]1CNC(=O)C1; test system = healthy fasted humans, plasma; conditions = oral, 20 mg; Vz/F = 63 ± 20.7 L
Structure (SMILES) = COc1cc2nccc(Oc3ccc(NC(=O)NC4CC4)c(Cl)c3)c2cc1C(N)=O; test system = human, plasma; conditions = oral, 5 mg, arithmetic mean, together with: placebo; Vz/F = 347 L
Structure (SMILES) = CNC(=O)c1c(C)oc2cc(Oc3ncnc4cc(OC)c(OC)cc34)ccc12; test system = human, plasma; conditions = oral, 5 mg, fasted; Vz/F = 47 L
Structure (SMILES) = COc1cc(C(=O)NC2CCN(C)CC2)c(F)cc1Nc1ncc(C(F)(F)F)c(Oc2cccc3c2C(=O)N(C)C3)n1; test system = human patients, plasma; conditions = oral, 200 mg once daily, steady state; Vz/F = 311 L
Structure (SMILES) = CCCS(=O)(=O)N[C@H]1C[C@@H](N(C)c2ncnc3[nH]ccc23)C1; test system = human, moderate hepatic impairment; conditions = oral, 200 mg, single dose, geometric mean; Vz/F = 224 L
Structure (SMILES) = O=C(c1cccnc1-c1ccncc1)N1CCC(O)(Cc2ccccc2)CC1; test system = healthy human, plasma; conditions = oral, 300 mg once daily, day 1, arithmetic mean; Vz/F = 1180 L
Structure (SMILES) = CC[C@H](C)[C@@H]1NC(=O)[C@H](CCCNC(=N)N)NC(=O)[C@H](CC(=O)O)NC(=O)[C@H](CC(C)C)NC(=O)[C@H](CCCCN)NC(=O)[C@H](CC(C)C)NC(=O)CNC(=O)[C@H](Cc2ccccc2)NC(=O)[C@@H](NC(=O)CNC(=O)[C@H](CCCCN)NC(=O)[C@H](CO)NC(=O)[C@H](CC(C)C)NC(=O)CNC(=O)[C@H](CCCCN)NC(=O)[C@H](CCCCN)NC(=O)[C@H](CC(N)=O)NC(=O)[C@H](C)NC(=O)CNC(=O)[C@H](CCCCN)NC(=O)[C@H](Cc2ccc(O)cc2)NC(=O)[C@H](CCCCN)NC(=O)[C@H](CCCNC(=N)N)NC(=O)[C@H](C)NC(=O)[C@H](CC(N)=O)NC(=O)[C@@H]2CCCN2C(=O)[C@H](Cc2c[nH]cn2)NC(=O)[C@H](CCC(=O)O)NC(=O)[C@H](CCC(N)=O)NC(=O)CNC(=O)[C@@H]2CCCN2)CSSC[C@@H](C(=O)O)NC(=O)CNC(=O)[C@H](CC(C)C)NC(=O)CNC(=O)[C@H](CO)NC(=O)[C@H](CCSC)NC(=O)[C@H](CO)NC(=O)CNC1=O; test = ECLA; test system = human, plasma; conditions = subcutaneous, 15 µg/kg once daily, week 26; Vz/F = 3.02 L/kg
